Measured values pooled from the literature.
A part holds a random share of what one study measured. Substitutions count along the parent as printed.

Sample 1
Target: CCNF, cyclin fold, Cln2 fusion (human)
Technique: yeast growth competition, sequencing
Matrix: yeast
Notes: strong parent motif
Relative to: not given
Direction: higher = stronger binding
Parent: CDKN1A docking peptide (human); SKACRRLFGPVDS
| Substitution | normalised enrichment score |
| --- | --- |
| A3D | 0.594 |
| R6A | 5.61 |
| D12Y | 7.43 |
| F8G | 0.265 |
| D12V | 7.15 |

Sample 2
Target: Interferon regulatory factor 3, full length, phosphomimetic (IRF3, Homo sapiens, UniProt Q14653, residues 1-427, S386D/S396D/S398D/S402D/T404D/S405D)
Technique: protein-binding microarray
Molecule type: double-stranded DNA, one strand shown
Matrix: in vitro
Tested at: 2540 nM top
Notes: 60-bp whole probe
Added: salmon DNA 0.4 mg/ml
Relative to: random background probes
Direction: higher = stronger binding
All sequences stand within: GCCTAGCAC … GTCTTGATTCGCTTGACGCTGCTG
Target sequence (chain): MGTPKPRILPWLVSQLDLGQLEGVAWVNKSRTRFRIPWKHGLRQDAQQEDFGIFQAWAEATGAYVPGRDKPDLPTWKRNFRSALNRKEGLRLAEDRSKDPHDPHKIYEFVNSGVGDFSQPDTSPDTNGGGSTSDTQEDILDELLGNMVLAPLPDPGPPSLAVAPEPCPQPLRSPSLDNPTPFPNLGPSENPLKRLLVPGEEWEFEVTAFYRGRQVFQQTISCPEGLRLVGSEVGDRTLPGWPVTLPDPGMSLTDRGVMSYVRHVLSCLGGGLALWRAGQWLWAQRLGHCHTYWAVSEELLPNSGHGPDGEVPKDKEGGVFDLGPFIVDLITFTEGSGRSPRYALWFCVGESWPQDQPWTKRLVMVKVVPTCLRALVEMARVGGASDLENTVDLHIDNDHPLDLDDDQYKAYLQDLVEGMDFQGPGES
| Sequence | fitted relative affinity [z-score] |
| --- | --- |
| GACGGTCTCGGACTGGGTACGTGCTAG | 0.131 |
| GACGGTTTCGGTATCGAGACGTGCTAG | 8.15 |
| TTAGATATCAGTCTCGATGAGTGCTAG | 1.13 |
| TTAGATCTCAGTATCGATTGGTGCTAG | 0.617 |
| GACGATTTCGGGTTTCGAGGCGTGCTA | 2.57 |
| TTAGAACTGGGGCCTGGATTAGTGCTA | -1.05 |

Sample 3
Target: RNA binding protein fox-1 homolog 2, RRM domain, GST-SBP tag (RBFOX2, Homo sapiens, UniProt O43251-10, residues 100-194)
Technique: RNA Bind-n-Seq
Molecule type: RNA
Matrix: in vitro
Tested at: 365 nM
Notes: natural RNA segment, single round, ends assumed
Relative to: no-protein control
Direction: higher = stronger binding
All sequences stand within: GGGAGUUCUACAGUCCGACGAUC … UGGAAUUCUCGGGUGCCAA
| Sequence | RBNS enrichment (R) |
| --- | --- |
| AUUCACGGUGAGACAUUUUGCCACCUUCUUGUGUAUAUUACUUGGCAUGAGAUGAUAUUGUACUUGUAUAGGAUUCUAGCAAUUCAUAAUAAAUAUGUAAGACUAGGCUU | 0.615 |
| ACUGCAUUGUCAGCACUGACCUUGCUUGGUCCUUUCCCUCCUGCUGUCCCUCAGUGCCUUCUCUCAGCUCCCAGGCCAAUGGCGGCCAGCCUUCCCCAAGACAAUGAGGU | 0.378 |
| AUCUCAUUCAAAUGUUUGUUGUUAUGAUGCAAAUGGAUAUUGGUUUCAAUAGAAGCUGGAUCCUUAAUACUGCAUUUUCUGAAUUCUGUUUUAAUAUUUGUGUUAAAGUA | 0.518 |
| GGCAACCCACCACCUUCCAUGAAAAACUCCUCUCAUCCUUGUCAUUUUACUUUUUUGUAUACAUAUGUGUAACUUACACUGUUAUUAAUUCAACGGAUAUAUAUUUAUCA | 0.452 |
| CCUGUCCCUAGUAUGUUCUUUCAUGUUCUGGGUAAAAUUUCCAACCCUCAAAGAGUCUAAAACGUCUCAUUUUUUUUUACCACGUCCUCCCCAGUAAGAAGCCAAGGUAC | 0.941 |
| UGUCUUGUGUGUGGUACCUUGGGCAAGUUACUAACUCCCUCUGUAAAGUAGAGACGAUGGGGACUGUCUCACUGUGACAAGGUAAGAUUUAAGUGAGAUGCACACAAAAA | 1.98 |

Other studies, line by line
| Molecule | target | test | test system | conditions | scale | endpoint | result |
| --- | --- | --- | --- | --- | --- | --- | --- |
| PhoQ, residues 284 288 289 292 302 303 TASMAF | PhoP, residues 12 14 15 18 19 NIMAP (Escherichia coli, UniProt P23836) | Sort-seq, measured: YFP reporter | E. coli | PhoQ-PhoP variant library, added: 10 µM Mg2+ | relative to: high Mg2+ state, higher = stronger signaling | fold induction | 0.505 |

A few entries again (sample 1):
| Substitution | normalised enrichment score |
| --- | --- |
| F8G | 0.265 |
